Assay results from different studies.
Numbered parts are unrelated; each lists some results of a single study.

Study 1 — technique: RNA Bind-n-Seq; form: RNA; medium: in vitro; tested at: not given; reference: input RNA pool; direction: higher = stronger binding
Target: RING finger protein unkempt homolog, zinc fingers 1-6, GST-SBP tag (UNK, Homo sapiens, UniProt Q9C0B0, residues 30-357)
UniProt Q9C0B0, sequence (30-357, looked up): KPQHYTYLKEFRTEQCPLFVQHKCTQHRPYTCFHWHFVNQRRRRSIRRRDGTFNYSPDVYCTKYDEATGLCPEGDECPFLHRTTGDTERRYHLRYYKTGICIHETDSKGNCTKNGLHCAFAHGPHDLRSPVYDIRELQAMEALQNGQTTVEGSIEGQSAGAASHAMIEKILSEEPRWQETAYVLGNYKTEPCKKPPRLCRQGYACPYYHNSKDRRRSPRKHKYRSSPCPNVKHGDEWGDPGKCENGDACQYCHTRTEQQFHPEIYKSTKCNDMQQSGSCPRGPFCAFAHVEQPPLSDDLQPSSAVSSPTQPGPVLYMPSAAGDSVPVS
Setting: RNA with constant flanks, human and mouse sites, ends assumed
Shared flanks, not repeated: GGGAGUUCUACAGUCCGACGAUC … CAACAGAGGAUUGAGCAUCA
| Strand | bound/input enrichment |
| --- | --- |
| UUCAAAGCCUUACGUCGACAGUUGCCAGUUACACGCACUAAGAUUGAUUGGAACAAGAUCCUUAGCUACAAGAUUGGCAAAGAGAUGCAGAAUGCAUAAGAUGAACAUUGCAUGACCGGA | 0.241 ratio |
| GUGGACAUGGCGGCACAGGUUGCUGCAGGAAUGGCUUACAUCGAGCGCAUGAAUUAUAUCCACAGAGAUCUGCGAUCAGCAAACAUUCUAGUGGGGAAUGGACUAAUUUGCAAGAUUGCU | 0.469 ratio |
| GAUUAAUACUUCUUGAAUGAUAAAAUCAUUUUGCCAUGUUAGAAGACAUUUCCGAAGAAGACAUUUGGGAAUACAAAUCUAAAAGAAAACCAAAACGAGUUGAUCCAAAUAAUGGCUCUA | 0.179 ratio |
| AAAAAAGAGGCAAAGAAACGGGAGAAACUAGAGAAAUUCCAGCAGAAGCAGAAGACCCAGCAGCAGCCCCCGCACGGAGAGAAGAAACCAAAACCAGAGAAGAAGGAGAAACGGGACCCU | 0.506 ratio |
| GUGGCUGACAUCUCUGUUGCUAAAAUCGAUCCUUCGGCCCCUUUGGAUAAAGUCUGCCUUCUCGGCUGUGGUAUUUCAACUGGCUACGGGGCUGCUGUGAACACUGCCAAGGUGGAGCCU | 0.158 ratio |
| UUGAUGGAGUCAGUAUGGAAUAUGAAUGAUAGCUGUAGAUUUCAACUUCGGUCUCCAGAGAGCCUGAAGAGCAUGGAAAAAGCCAGCAAAACUCUUGAGACAAAGCCCGAGAGUAAGCAG | 0.26 ratio |
| CUUAGUCGUGUCACUCUUCUUGAAACAGAAAUGCUUUUGUCUAAAAAGAAUGAUGAAUUUAUAGAGUUUAAUGAAGUUAGUGAAGACUACGCUUCUUGUAGUGACAUGGACCUUCUGAAU | 0.184 ratio |
| GAUUUUGCCAUGCCCUAUUUCAUCCAGGUCAUGAAGGAGUACUUGACAAAGGUGGAUAAAUUAGAUGCUUCAGAAUCACUGAGAAAAGAAGAAGAACAAGCUACAGAGACACAACCCAUU | 0.194 ratio |

Study 2 — technique: protein-binding microarray; form: double-stranded DNA, one strand shown; medium: in vitro; tested at: not given; direction: higher = stronger binding
Target: Protein C-ets-1 (ETS1, Homo sapiens, UniProt P14921, residues 1-441, Y397A, full length assumed)
Setting: k-mer, scored over probes, only values ≥0.25
Residues (chain): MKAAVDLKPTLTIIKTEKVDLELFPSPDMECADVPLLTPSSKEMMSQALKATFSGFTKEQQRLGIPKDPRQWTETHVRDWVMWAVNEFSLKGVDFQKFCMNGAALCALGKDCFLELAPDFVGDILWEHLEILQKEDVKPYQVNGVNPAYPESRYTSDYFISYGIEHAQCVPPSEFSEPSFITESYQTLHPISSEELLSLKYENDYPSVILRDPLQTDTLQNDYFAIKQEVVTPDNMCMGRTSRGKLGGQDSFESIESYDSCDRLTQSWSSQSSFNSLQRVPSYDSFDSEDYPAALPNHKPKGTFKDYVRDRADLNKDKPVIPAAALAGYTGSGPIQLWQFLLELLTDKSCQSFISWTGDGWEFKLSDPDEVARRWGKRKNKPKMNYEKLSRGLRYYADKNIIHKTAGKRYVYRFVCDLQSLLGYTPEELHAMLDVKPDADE
| Strand | E-score |
| --- | --- |
| AATTGGCA | 0.345 |
| ATGTTGAC | 0.294 |
| GTTGGCAA | 0.362 |
| ACGACATC | 0.267 |
| CCCGCCCA | 0.361 |
| ACGCACGC | 0.316 |
| TCGTCAAA | 0.34 |
| CCCGACAA | 0.323 |
| GTTGCGTA | 0.265 |
| GCAAAATA | 0.253 |
| CCCCGCCC | 0.348 |
| GCGTCGGA | 0.303 |
| TCGCCAAA | 0.334 |
| ATTGTCTA | 0.263 |
| ACAACTTC | 0.259 |
| GCGCAAAC | 0.295 |

Study 3 — technique: RNA Bind-n-Seq; form: RNA; medium: in vitro; tested at: 365 nM; reference: no-protein control; direction: higher = stronger binding
Target: RNA binding protein fox-1 homolog 2, RRM domain, GST-SBP tag (RBFOX2, Homo sapiens, UniProt O43251-10, residues 100-194)
Setting: natural RNA segment, single round, ends assumed
Shared flanks, not repeated: GGGAGUUCUACAGUCCGACGAUC … UGGAAUUCUCGGGUGCCAA
| Strand | RBNS enrichment (R) |
| --- | --- |
| GGCUCAGGCUACUAUGACCAAUAGAAGUGAAAGUCUUGGUCAUAAUUUGGGGUGACAUGCUGUCAAAAGGCUAAUAUAGACUGGGUGUGGUAGUGCACACCUUGAAUCUG | 0.472 |
| AUAAAAUAAUUUUGACAUAACAGACAUGAACAGACAUAAGAACGGCUUCCAAUGUUAAUUGAUAAUCUAUAAAUAUCAUUUUGGAAUUUGACUGGUUCACAAAUAUAUCC | 0.672 |
| AGUUUAUGUACAGGGAAAAGGAUUUUAUUAUCCUUAGGAAUGUCAUCCAAGACGUAGAGCUUGAAUGUGACGUUAUUUAAAAACAACAACAAAGAAGGCAGAGCCAGGAU | 0.619 |
| UGAAAAUCAUGAAAAGAGGAACAGGUGGAUGUAUAGCAUUUUUAUUCAUGCCAUCUGUUUUCAACCAACUAUUUUUGAGGAAUUAUCAUGGGAAAAGACCAGGGCUUUUC | 0.546 |
| UUUCUGGCUUUAGCUGCUAGUUUUCCCAAAUCUCAGUGCUUUCCCUUUUUGAACUUCCCUUCUAUUAAACUUAAAACAGAUGUCUUAAUUAAUCAGGCUGUCUUGGAAGG | 0.452 |
| UUUUAGUGCCUGUUGAGGACUUGAUUUCUUCUUGAUUUUUCUCUUAAUCUGGUUCAUUUGAAAUUUCUCACUUCUUAACCAUAGAGCUAAGUUAUUGUCAAAACUGGGCA | 5.11 |
| AGCCUGCUAUCACUCCUUCAAGCACAGUUCUGAACCCAGUCCAUCCAUCCAGUGGGCCAGCUCCCAGACAGCCAUUCCCAGGUCAUCUUCUUUAAGACAGUGCUAGAGUA | 0.452 |
| CCUCCUAACUUUUAUAGUUAUUUUGUUUUAUAUUUCUGAAUUCUUGUAUCAGAUCCAAAGCUCUAUUGUACAGCAAAUUAUUCUUCAAAGUGAUUAUAACCAGUUACAAC | 0.556 |

Study 4 — technique: RNA Bind-n-Seq; form: RNA; medium: in vitro; tested at: 1 µM; setting: whole 134-nt RNA, ends assumed; together with: 150 mM KCl; reference: input library; direction: higher = stronger binding
Target: Ras GTPase-activating protein-binding protein 1, RRM domain (G3BP1, Homo sapiens, UniProt Q13283)
UniProt Q13283, sequence (whole entry, looked up): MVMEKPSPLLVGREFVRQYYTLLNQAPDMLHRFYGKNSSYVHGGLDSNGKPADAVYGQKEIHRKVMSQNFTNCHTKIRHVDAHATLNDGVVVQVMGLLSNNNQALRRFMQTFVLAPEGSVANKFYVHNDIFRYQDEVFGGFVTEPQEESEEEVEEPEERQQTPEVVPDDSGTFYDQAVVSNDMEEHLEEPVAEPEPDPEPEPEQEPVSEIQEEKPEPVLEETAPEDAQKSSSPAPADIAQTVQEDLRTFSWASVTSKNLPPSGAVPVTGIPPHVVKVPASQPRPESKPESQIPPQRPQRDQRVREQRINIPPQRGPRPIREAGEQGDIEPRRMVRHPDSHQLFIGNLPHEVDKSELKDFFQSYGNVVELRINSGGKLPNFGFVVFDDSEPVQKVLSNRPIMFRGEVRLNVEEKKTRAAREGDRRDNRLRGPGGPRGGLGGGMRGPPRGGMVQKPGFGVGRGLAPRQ
Shared flanks, not repeated: GGGAGUUCUACAGUCCGACGAUC … UGGAAUUCUCGGGUGUCAAGG
| Strand | log2 enrichment |
| --- | --- |
| AGUCCUGUGCUACACAUCGUAUGUACCGAAUCGGGGAAAAAAAGGGGUGGGGUGGGGAAAGUAUUAUGUUACGCCGUUCGGAUCUGCACU | 0.636 |
| UGGGAGGUGGAUUUUGUUUAUUUUUUUAGCUCAUUACCAGGGGUGGGAAUUUUUUUUUAAUAUGUGUCAUGAAUAAAGUUGUUUUUGAAA | 2.07 |
| UGUGCUACACAUCGUAUGUACCGAAUCGGGGUUUUUGGGGAAAAAAAGGGGUUUUUUUGGGGAAAGUAUUAUGUUACGCCGUUCGGAUCU | 1.26 |
| CUCAAGUCCUGUGCUACACAUCGUAUGUACCGAAUCGGAAAGGUUUGGAAAGGAAAGUAUUAUGUUACGCCGUUCGGAUCUGCACUUCCA | -0.237 |
| UGUGCUACACAUCGUAUGUACCGAAUCGGGGAAAAAAAGGGGAAAAAAAGGAAAAAAAGGGGAAAGUAUUAUGUUACGCCGUUCGGAUCU | 0.222 |
| CCUCAAGUCCUGUGCUACACAUCGUAUGUACCGAAUCGGGUGGGGUGGGGUGGAAAGUAUUAUGUUACGCCGUUCGGAUCUGCACUUCCA | 0.0517 |
| ACCAUGCAGGUGGGCAUCUUUGGGAAGUGGGGCAAGGGGGGGAUAGGGAGGGGGGUAACACUUUGGGAACAGUUGGUCCCAGGUCGUUUC | 0.923 |
| GCAGGAAGUAAAAACAAAUGGAAAUGGUUCGGAUAGUGGCAGGGGUGGGGGUUGCUAAGGAAAGGGUGGGAUGGGAGUGGGUAAAGAGUU | 1.22 |
| CUGUGCUACACAUCGUAUGUACCGAAUCGGGGUUUUUUUGGGGUUUUUGGGGUUUUUGGGGAAAGUAUUAUGUUACGCCGUUCGGAUCUG | 0.79 |

Study 5 — technique: protein binding microarray; form: double-stranded DNA, one strand shown; medium: in vitro; tested at: not given; reference: not given; direction: higher = stronger binding
Target: Histone acetyltransferase KAT6A, both winged helices, GST fusion (KAT6A, Homo sapiens, UniProt Q92794, residues 1-181)
Setting: 8-mer, flanks averaged, mean of 2 arrays, mostly near background
Construct (chain): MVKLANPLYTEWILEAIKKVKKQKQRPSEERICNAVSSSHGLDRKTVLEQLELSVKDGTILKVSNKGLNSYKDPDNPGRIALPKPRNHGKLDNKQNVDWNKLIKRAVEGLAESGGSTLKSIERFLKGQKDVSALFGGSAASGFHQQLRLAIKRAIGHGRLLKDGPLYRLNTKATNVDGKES
| Strand | E-score |
| --- | --- |
| CTGAGAAC | -0.115 |
| ACACGTCA | -0.072 |
| AACAGGGA | -0.126 |
| CACAGGGA | -0.143 |
| ATGCAAGC | 0.0206 |
| ACGTACAG | -0.134 |
| AAGTTATT | -0.0625 |
| ACTGACAC | -0.0768 |
| ACCATCAC | -0.0717 |
| ATACTTTA | -0.177 |
| AGGCACGG | 0.168 |
| ACAGACGT | -0.00194 |
| CCATTAGG | -0.102 |
| ACATCTGA | -0.0378 |
| GATGCTCC | 0.0618 |
| ACTAGCTA | -0.0589 |
| ATTGTCCG | 0.164 |
| ACGGTAAC | 0.222 |
| CGACTGTA | 0.0103 |
| ACATCAAT | -0.12 |

Some of these lines once more (study 3):
| Strand | RBNS enrichment (R) |
| --- | --- |
| AUAAAAUAAUUUUGACAUAACAGACAUGAACAGACAUAAGAACGGCUUCCAAUGUUAAUUGAUAAUCUAUAAAUAUCAUUUUGGAAUUUGACUGGUUCACAAAUAUAUCC | 0.672 |
| AGUUUAUGUACAGGGAAAAGGAUUUUAUUAUCCUUAGGAAUGUCAUCCAAGACGUAGAGCUUGAAUGUGACGUUAUUUAAAAACAACAACAAAGAAGGCAGAGCCAGGAU | 0.619 |
| UGAAAAUCAUGAAAAGAGGAACAGGUGGAUGUAUAGCAUUUUUAUUCAUGCCAUCUGUUUUCAACCAACUAUUUUUGAGGAAUUAUCAUGGGAAAAGACCAGGGCUUUUC | 0.546 |
| UUUCUGGCUUUAGCUGCUAGUUUUCCCAAAUCUCAGUGCUUUCCCUUUUUGAACUUCCCUUCUAUUAAACUUAAAACAGAUGUCUUAAUUAAUCAGGCUGUCUUGGAAGG | 0.452 |
| UUUUAGUGCCUGUUGAGGACUUGAUUUCUUCUUGAUUUUUCUCUUAAUCUGGUUCAUUUGAAAUUUCUCACUUCUUAACCAUAGAGCUAAGUUAUUGUCAAAACUGGGCA | 5.11 |
| AGCCUGCUAUCACUCCUUCAAGCACAGUUCUGAACCCAGUCCAUCCAUCCAGUGGGCCAGCUCCCAGACAGCCAUUCCCAGGUCAUCUUCUUUAAGACAGUGCUAGAGUA | 0.452 |
